Assay results pooled from the literature.
Protocols differ between the studies behind these lines. ± gives the spread as reported.

C[C@]12CC[C@@H]3c4ccc(OCC(=O)N[C@@H](CCCCNC(=O)CN5CCN(CC(=O)[O-])CCN(CC(=O)[O-])CCN(CC(=O)[O-])CC5)C(=O)O)cc4CC[C@H]3[C@@H]1CCC2=O.[68Ga+3]  liver uptake (female Balb/c mice; 2.5 h): 0.89 ± 0.2 %IA/g
CCCC[C@@H]1NC(=O)[C@@H](NC(=O)[C@H](CCC(=O)O)NC(=O)CNC(=O)CN2CCN(CC(=O)O)CCN(CC(=O)O)CCN(CC(=O)O)CC2)CCCCNC(=O)C[C@@H](C(N)=O)NC(=O)[C@H](C(C)C)NC(=O)[C@@H]2CCCN2C(=O)[C@H](CCCNC(=N)N)NC(=O)CNC(=O)[C@H](Cc2c[nH]c3ccccc23)NC(=O)[C@H](CCCNC(=N)N)NC(=O)[C@@H](Cc2ccccc2)NC(=O)[C@H](Cc2c[nH]cn2)NC(=O)[C@H](CCC(=O)O)NC1=O [gallium-67 labelled]  tissue uptake (C57 mice, B16/F1 flank melanoma, bone; intravenous, 0.037 MBq/mouse, 24 h): 0.21 ± 0.2 %ID/g
O=C(O)[C@@H]1C[C@@H](O)CN1C(=O)[C@@H]1CCCN1  log beta (potentiometric titration; 25 °C, MAH-2 complex, added: Fe(III)): 0.01
CCCCC1NC(=O)c2ccccc21 (racemic)  CL/F (Wistar rat, plasma; intravenous, 10 mg/kg): 12.1 mL/min/kg
O=C(NCCCN(CCCCN(CCCNC(=O)c1cccc(=O)n1[O-])C(=O)c1cccc(=O)n1[O-])C(=O)c1cccc(=O)n1[O-])c1cccc(=O)n1[O-].[89Zr+4]  intact complex (radio-TLC; PBS; 7 d, pH 7.4, 37 °C, added: K^+ 10-fold excess): 98.1 ± 0.7%
N=C(N)NCCC[C@@H]1NC(=O)[C@H](Cc2c[nH]c3ccccc23)NC(=O)[C@@H](CC2CCCCC2)NC(=O)[C@@H]2CCCN2C(=O)[C@@H](NC(=O)CCc2ccccc2)CCCNC1=O  beta rate constant (two-compartment model; C57BL/6J mice, brain; oral, 1 mg/kg): 0.25 h⁻¹
CC(C)[C@H](NC(=O)CNC(=O)[C@H](CCC(N)=O)NC(=O)[C@H](C)N)C(=O)O  clearance (human, both sexes, plasma; intravenous infusion, 45 mg/kg/h, 2 h infusion, geometric mean): 983 mL/min/kg
O=c1nc(NO)ccn1[C@@H]1O[C@H](CO)[C@@H](O)[C@H]1O  mRNA level (RT-PCR, refers to: CYP2C13; normal rat, liver; oral, 80 mg/kg twice daily, 5 days; reference: untreated rats): < 0.1 fold
CC(C)CCN(Cc1ccc(F)cc1)c1nc(C#N)nc(N2CCOCC2)n1  brain/plasma AUC ratio (CD-1 mouse female; intraperitoneal, 10 mg/kg; reference: brain over plasma): 0.61
CCCC(CCC)NC(=O)c1ccc(O)c(O)c1  AUC(0-last) ratio (female Sprague-Dawley rats, plasma; oral, 50 mg/kg of parent drug; reference: 50 over 20 mg/kg dose): 3.47
COc1ccc2cc(-c3ccc(-c4ccc(C)cn4)nc3)oc2c1  fluorescence lifetime (TCSPC; hexanes): 1.12 ns
COc1cc(NC(C)=O)c2c(c1O)-c1c(OC)c(OC)cc3c1C(C2)N(C)CC3 (centres unmarked)  remaining compound (rat kidney homogenate; 0.5 µg/mL, 4 h, room temperature, short-term storage): 98.5 ± 1.7%
CC(C)C(=O)NC1CC=C(c2cc3c(Nc4cc5ncsc5cc4F)ncnc3s2)CC1 (racemic)  half-life (metabolic stability; human, liver microsomes): 53.3 min
Cc1ccc(OCC(=O)N(Cc2cccs2)c2ccn[nH]2)cc1  Cmax (male beagle dog, plasma; oral, 30 mg/kg, single dose): 41.9 ng/mL
Nc1nc(-n2nnc3c2CCC2C(CO)C2CC3)nc2c1ncn2C1OC(CO)C(O)C1O (mixture of isomers)  second excitation maximum (methanol; red edge of spectrum): 329 nm
CCn1c(=O)n(CCO)c(=O)c2c1nc(/C=C/c1ccc(OC)c(OC)c1)n2C  change in AUCinf (healthy humans, plasma; oral, 40 mg, added: rifampin 600 mg/day; reference: without rifampin): -70%
CC(C)CCCC(C)CCCC(C)CCO[C@@H]1O[C@H](CO)[C@@H](O[C@H]2O[C@H](CO)[C@@H](O)[C@H](O)[C@H]2O)[C@H](O)[C@H]1O (some centres unmarked)  surface tension at CMC (drop shape tensiometry; water; room temperature): 28.3 mN/m
COc1cc2ncnc(Oc3ccc4c(C(N)=O)c(C)oc4c3)c2cc1OC  decrease in exposure (refers to: AUC0-t; human, severe renal impairment; oral; reference: normal renal function): ~55%
Oc1ccc2ccccc2c1/N=N/c1ccccc1  freeze-thaw stability deviation (rat whole blood; 16.0 µg/L, freeze-thaw cycle 3): -0.7%
COc1cc2c(cc1OC)CN(CCCCn1ccc3cc(OCC[18F])ccc31)C2  liver uptake (male ICR mice; intravenous, 15 min post-injection): 14.7 ± 2.01 %ID/g
Cn1c(=O)oc2ccc(-c3ccc(CC(C#N)NC(=O)C4CNCCCO4)c(F)c3)cc21 (centres unmarked)  subjects with TRAE (refers to: alanine aminotransferase increased; human; 60 mg single dose, fasted): 0%
NC[C@@H](C(=O)Nc1ccc(-c2cn[nH]c2)cc1)c1ccccc1  total ocular irritation score (OECD 405 test; New Zealand White rabbits; topical, 0.1 %, day 1, 1 h; direction not given): 1
COc1cc(OC)cc(C2=C3C(C)=C(I)C(/C=C/c4c[nH]c5ccc([N+](=O)[O-])cc45)=[N+]3[B-](F)(F)n3c(/C=C/c4c[nH]c5ccc([N+](=O)[O-])cc45)c(I)c(C)c32)c1  absorption maximum (DMSO): 712 nm
C=C(c1ccc(C(=O)O)c(F)c1)c1cc2c(cc1C)C(C)(C)C=CC2(C)C  LDL level (Sprague-Dawley rat, male, plasma; oral, 100 mg/kg, 9 h, sesame oil vehicle): 5 ± 2.5 mg/dL
N#Cc1cc(C(=O)OCC[18F])c(C(F)(F)F)nc1N1CCN(C(=O)Cc2ccccc2)CC1  blood half-life (mouse, whole blood; intravenous, 11.1 MBq): 30.6 min
COCC1CN(C2CCN(c3cc(OC)c(Nc4ncc(Br)c(Nc5ccc6c(c5P(C)(C)=O)OCCO6)n4)cc3C)CC2)C1  grade ≥3 treatment-related hypertension (human patients; oral, dose not given): 3.7%
CCCC[C@H](NC(C)=O)C(=O)N[C@H]1CC(=O)NCCCC[C@@H](C(=O)N[C@@H](C(=O)N2CCC[C@@H]2C(N)=O)C(C)C)NC(=O)[C@H](Cc2c[nH]c3ccccc23)NC(=O)[C@H](CCCN=C(N)N)NC(=O)[C@@H](Cc2ccc3ccccc3c2)NC(=O)[C@@H]2CCCN2C1=O  haematocrit (dog; day 1, start of treatment): 43%
C[Si](C)(C[C@@H](CN)CC(=O)O)C1CC1  performance time (neuromuscular coordination; Wistar rat male; oral, 30 mg/kg, 2 h): 168 s
OCc1[nH]nc2c1N=C(c1ccccc1Cl)c1cnc(N3CCOCC3)cc1N2  excretion in feces and urine (human, feces and urine; oral, 10 mg; reference: dose): 3.46%
CCCCCCCCCCCCCCCCCC(=O)Nc1ccn(C2OC(CO)C(O)C2(F)F)c(=O)n1 (centres unmarked)  terminal half-life (athymic nude mouse, female, BxPC-3 xenograft, plasma; intravenous, 25 mg/kg gemcitabine equivalent): 21 ± 1.6 min
C[Si]1(C[C@H](CN)CC(=O)O)CCCC1  performance time (neuromuscular coordination; Wistar rat male; oral, 30 mg/kg, 2 h): 180 s
C=C(c1cc(F)c(C(=O)O)c(F)c1)c1cc2c(cc1C)C(C)(C)CCC2(C)C  blood cholesterol (Sprague-Dawley rat, male; oral, 100 mg/kg, 9 h, sesame oil vehicle): 80 ± 14 mg/dL

For quick reference, copied from above:
COc1cc2c(cc1OC)CN(CCCCn1ccc3cc(OCC[18F])ccc31)C2  liver uptake (male ICR mice; intravenous, 15 min post-injection): 14.7 ± 2.01 %ID/g
Cn1c(=O)oc2ccc(-c3ccc(CC(C#N)NC(=O)C4CNCCCO4)c(F)c3)cc21 (centres unmarked)  subjects with TRAE (refers to: alanine aminotransferase increased; human; 60 mg single dose, fasted): 0%
NC[C@@H](C(=O)Nc1ccc(-c2cn[nH]c2)cc1)c1ccccc1  total ocular irritation score (OECD 405 test; New Zealand White rabbits; topical, 0.1 %, day 1, 1 h; direction not given): 1
